Experimental data gathered from unrelated publications.
Each numbered part is a random draw from the data of one study; scales do not carry over between parts.

Series 1
Target: RING finger protein unkempt homolog, zinc fingers 1-6, GST-SBP tag (UNK, Homo sapiens, UniProt Q9C0B0, residues 30-357)
UniProt Q9C0B0, sequence (30-357, looked up): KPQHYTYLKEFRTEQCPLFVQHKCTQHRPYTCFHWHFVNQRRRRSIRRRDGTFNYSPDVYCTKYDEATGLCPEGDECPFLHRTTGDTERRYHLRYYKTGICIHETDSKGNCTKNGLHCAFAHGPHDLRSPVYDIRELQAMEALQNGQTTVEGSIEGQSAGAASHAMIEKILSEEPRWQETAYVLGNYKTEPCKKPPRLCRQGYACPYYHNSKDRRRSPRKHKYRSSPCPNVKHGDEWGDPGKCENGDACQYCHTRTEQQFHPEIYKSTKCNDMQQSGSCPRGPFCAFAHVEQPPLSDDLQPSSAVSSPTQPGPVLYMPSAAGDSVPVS
Method: RNA Bind-n-Seq
Molecule type: RNA
Matrix: in vitro
Concentration: not given
Setting: RNA with constant flanks, human and mouse sites, ends assumed
Relative to: input RNA pool
Direction: higher = stronger binding
Strand | bound/input enrichment
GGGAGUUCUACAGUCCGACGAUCUUACAUACUCUAGAGGAAGAAAAGGAAGAACUAGCUCAGUAUCAGAAGUGGGAUAAAAUGAGACGAGCCCUGGAAUAUACCAUUUACAAUCAGGAACUUAACGAGACUCGUGCCAAACUUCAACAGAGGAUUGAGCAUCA | 0.239 ratio
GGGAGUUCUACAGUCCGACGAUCUUUCCACGAGGGGAUGAAAUAUUGGAGCUGUUGUAGAAGAAAAACUUCAGAUUUUAAUACAUUCUUAGCCCAAGAGGGCUGUACAAGAGGGAAGCAUGUAUGGACUAAAAAAGAUGCAGGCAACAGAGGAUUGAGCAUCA | 0.395 ratio
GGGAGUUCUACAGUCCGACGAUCUCCUCCCUUGCCCCAUUAUCUUUUCACCUCCCAGGUCUACCAUUUCAUGGUGGUCGUUGGGUCCGCCUAAAGGAUUUGAGCGUUUGCCAUUGCAAGCAUAGUGCUGUGUCAUCCUGGUCCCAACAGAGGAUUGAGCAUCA | 0.277 ratio
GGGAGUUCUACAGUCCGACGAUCGACUCCAGCAAGAAGAAAAGGUCAAAACCACGUGUUUCCCAAAAGUCCAGACUACAAUGAUUCAGCUGACUUGAGGACAAGGCCUAGCAUUUGGCUGAGCAGAGCCCUCUUCCUUGCCCUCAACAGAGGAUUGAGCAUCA | 0.142 ratio
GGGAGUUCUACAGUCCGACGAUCACUCCUACAGAUCUUAUCCUUUGUGUUCCUCAUCUGUAUUCCUGUCUAGAAGAUCGAAAUGGAGAUGUACGGAAGAAGGCCCAAGAUGCUUUGCCAUUCUUUAUGAUGCAUUUAGGAUAUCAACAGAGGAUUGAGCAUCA | 0.325 ratio
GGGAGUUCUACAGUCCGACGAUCGCUUUGACCCAGCAACACCCUCCAGUUACCAAUGGUGAUACUGUAAAAGGCCAUGGCAGUGGAUUGGUUAGGACUCAGUCAGAAGAGUCUCGCCCACAGUCCUUGCAGCAGCCAGCCACCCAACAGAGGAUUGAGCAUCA | 0.114 ratio
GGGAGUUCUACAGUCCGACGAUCAGGAACAAGAUGAAAAGAGUGAAACUUCACAGCUGCUUUGUUAAGGCUCCCCAAUACCCUUAGGGGCACGGAGGACGCAGCUCGCGAAAUCCACUUCCGAUUGGUCGUCUGUGACCUCACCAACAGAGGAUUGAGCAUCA | 0.12 ratio
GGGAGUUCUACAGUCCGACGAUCCUUCAGGUUUCUUUCAUUAUGUGUUUGCUGUAAGACUUUGUACAUUUUUGUGCAUAUUGGUAUCAUUUGGCAGUAGGGCUGGAACCAAAGUAUUACUCUCUUUACAAAAUUUUAAUUUAACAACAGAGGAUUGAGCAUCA | 2.58 ratio

Series 2
Target: Histone acetyltransferase KAT6A, both winged helices, GST fusion (KAT6A, Homo sapiens, UniProt Q92794, residues 1-181)
Method: protein binding microarray
Molecule type: double-stranded DNA, one strand shown
Matrix: in vitro
Concentration: not given
Setting: 8-mer, flanks averaged, mean of 2 arrays, mostly near background
Relative to: not given
Direction: higher = stronger binding
Target sequence (chain): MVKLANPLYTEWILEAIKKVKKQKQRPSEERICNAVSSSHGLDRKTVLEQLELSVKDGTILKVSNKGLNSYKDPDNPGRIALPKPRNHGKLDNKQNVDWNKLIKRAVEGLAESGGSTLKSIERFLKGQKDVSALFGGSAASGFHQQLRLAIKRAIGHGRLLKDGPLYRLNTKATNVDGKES
Strand | E-score
ACCAGGAC | -0.0388
ACAATGGT | -0.104
AATAGCGA | 0.0463
GTTCCGTA | 0.206
ATACATTG | -0.112
GGCTGGAA | -0.129
GCGAAGAC | 0.125
CTAGTCCC | -0.136
CTTGCTCC | -0.217
CATCATGG | -0.0618
CACGCTCC | 0.0739
AATTAGTA | -0.0826
AAATCATG | -0.172
ACAAGTCA | 0.013
AGGTCATG | -0.151
AGAATTCG | -0.0897
TATAGCAA | -0.0544
ACCAATCC | -0.04
CCGACCAC | 0.000535
ACTCCGAG | -0.109
AGCTATGA | -0.141

Series 3
Target: Prothrombin, mature alpha-thrombin (F2, Homo sapiens, UniProt P00734)
Method: aptamer microarray, sandwich
Molecule type: DNA with 2'F-ANA
Matrix: in vitro
Concentration: 200 nM
Setting: whole 15-mer aptamer, many near background
Together with: Cy3 exosite-II aptamer, 400 nM
Direction: higher = stronger binding
Strand: GGTTGGTGTGGTTGG
Modification | mean fluorescence intensity
2'F-ANA at 1 6 7 12 13 14 15 | 80.9 a.u.
2'F-ANA at 1 3 6 9 11 14 | 77.9 a.u.
2'F-ANA at 6 9 14 | 169 a.u.
2'F-ANA at 4 5 7 8 9 11 13 14 15 | 47.7 a.u.
2'F-ANA at 1 2 3 5 7 8 9 13 14 | 47.4 a.u.
2'F-ANA at 3 8 12 13 14 15 | 660 a.u.
2'F-ANA at 1 3 4 8 9 10 12 | 82.2 a.u.
2'F-ANA at 2 6 8 9 10 14 15 | 84.3 a.u.
2'F-ANA at 3 5 9 15 | 129 a.u.
2'F-ANA at 1 4 5 8 9 10 12 13 14 15 | 51.2 a.u.
2'F-ANA at 2 4 6 9 12 14 | 104 a.u.
2'F-ANA at 1 2 4 5 6 11 13 14 | 44.4 a.u.
2'F-ANA at 1 7 8 11 13 | 210 a.u.
2'F-ANA at 3 4 5 6 9 12 13 14 15 | 51.1 a.u.
2'F-ANA at 1 5 9 10 12 14 15 | 50.9 a.u.
2'F-ANA at 1 3 5 7 8 9 10 12 | 211 a.u.
2'F-ANA at 2 5 7 8 9 13 14 | 49 a.u.
2'F-ANA at 4 7 10 11 12 14 | 64.8 a.u.
2'F-ANA at 1 2 3 4 9 11 13 | 117 a.u.
2'F-ANA at 3 7 8 9 11 12 13 | 1160 a.u.

Series 4
Target: RNA binding protein fox-1 homolog 2, RRM domain, GST-SBP tag (RBFOX2, Homo sapiens, UniProt O43251-10, residues 100-194)
Method: RNA Bind-n-Seq
Molecule type: RNA
Matrix: in vitro
Concentration: 365 nM
Setting: natural RNA segment, single round, ends assumed
Relative to: no-protein control
Direction: higher = stronger binding
Target sequence (chain): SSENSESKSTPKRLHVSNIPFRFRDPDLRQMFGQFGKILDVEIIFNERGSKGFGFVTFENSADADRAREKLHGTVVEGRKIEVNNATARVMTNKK
Strand | RBNS enrichment (R)
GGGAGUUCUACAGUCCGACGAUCGCAGAAUGCCACACCUGCAAGUUGAUUAGAACUGCCUUUCUUCCCAGGCUUGACAUAGGUAUUAAGUCAAAAUUACAUGAAACCCAGUGGUAAAAAAGCCUCUGAAAGCUUGGAAUUCUCGGGUGCCAA | 0.48
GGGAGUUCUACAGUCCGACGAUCAGAAGAAGGAAAAGAAGAAGUGCUUUUCAAAUCUUUCAAAGGGCUACAUGUAACCAUCUGGAAUGACCACAUCUACACCCUCCCAGACUCCGUCCUUUCAUUUCAACAUAUGGAAUUCUCGGGUGCCAA | 0.423
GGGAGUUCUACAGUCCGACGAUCUCAAGAGUGAGGCUAAACUGCGACCCCAACAUCACUUCCUUCAUGGAAAGGUGUUGGCGCUGAUGUAGCUCAUGGAAGGAUCAGACUGGGAACCACAGAGGAAGGAUGAGUGGAAUUCUCGGGUGCCAA | 0.344
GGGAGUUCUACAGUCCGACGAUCGCUCUUGCUAUUAACGUUAUUUGUAAUUUAGUUUGUAGCUCAUUAAAAAAAUGUGCCUAGUUUUAUAGUUCAUCUCUUUCCUCCUCUUAUUUACUGAAAGAAUGGUGGGAUGGAAUUCUCGGGUGCCAA | 0.576
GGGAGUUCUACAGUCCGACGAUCUUUGAUCCUACCAAAACCACUGCUGCUGUUUCUGAGAAAAGAAAGCAUUUUAUUCACCUGCAAGAUCACAUCCCUAGCUUUGAUUUUGCUUAAAUGAUAGGGACUUAAGAUGGAAUUCUCGGGUGCCAA | 0.49
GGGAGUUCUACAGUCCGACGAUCAGCCUGGUUUCUGGUUGUGUUCUUCACUCAGGCCUCCAUGGGCAACAAUGGUUUCAGGAGAACUGUUUGUUUCUGUGUGAAUUGAGUUGACACACUCCAGUCCUGAGCUGUGGAAUUCUCGGGUGCCAA | 0.343
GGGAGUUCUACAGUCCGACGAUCAUGUAGUUUUUACAGCCUGAAAAUUAACUGCCAUGAACAUUCUUUGGUGAUGUAAGCAAGUAAAACCCAAUGGACUCUGUUGUGAUAUCCUUUUGUGUUCCAGCCUAGGCUGGAAUUCUCGGGUGCCAA | 2.7
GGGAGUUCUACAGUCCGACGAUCAAGGAGGAAGUUCUGACUUUUCAGGGCUACCUUAUUUCUACUAAGGACCCAGAGCAGGCCUGUCCAUGCCAUUCCUUCGCACAGAUGAAACUGAGCUGGGACUGGAAAGGUGGAAUUCUCGGGUGCCAA | 0.185
